Experimental data of several laboratories.
Parts stem from different laboratories: compare values within a part only. Positions count from the first letter of the parent shown.

Study 1
Target: CCND1, cyclin fold, Cln2 fusion (human)
Method: yeast growth competition, sequencing
Medium: yeast
Setting: strong parent motif
Baseline: not given
Direction: higher = stronger binding
Parent: INSM1 docking peptide (human); PKAIRKLHFEDEV; partner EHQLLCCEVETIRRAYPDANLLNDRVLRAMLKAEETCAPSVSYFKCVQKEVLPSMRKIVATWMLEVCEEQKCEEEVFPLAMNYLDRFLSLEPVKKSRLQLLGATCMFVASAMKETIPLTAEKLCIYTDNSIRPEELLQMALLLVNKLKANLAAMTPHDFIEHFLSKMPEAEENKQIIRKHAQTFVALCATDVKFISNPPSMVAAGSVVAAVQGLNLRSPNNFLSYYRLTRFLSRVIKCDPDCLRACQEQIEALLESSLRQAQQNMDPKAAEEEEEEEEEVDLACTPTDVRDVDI
| Variant | normalised enrichment score |
| --- | --- |
| F9I | -0.0118 |
| K2Y | 2.86 |
| R5S | 0.379 |
| L7A | -0.0523 |
| E12F | 3.88 |
| D11N | 3.51 |
| A3Y | 0.368 |
| I4T | 1.73 |

Study 2
Target: ABI1, truncated, D143A, DHFR fusion (Arabidopsis thaliana)
Method: DHFR PCA, deep sequencing
Medium: yeast
Setting: methotrexate growth selection, single substitutions
Together with: (+)-ABA 0 µM
Baseline: wild-type fitted maximum
Direction: higher = stronger binding
Parent: PYL1, truncated, DHFR fusion (Arabidopsis thaliana); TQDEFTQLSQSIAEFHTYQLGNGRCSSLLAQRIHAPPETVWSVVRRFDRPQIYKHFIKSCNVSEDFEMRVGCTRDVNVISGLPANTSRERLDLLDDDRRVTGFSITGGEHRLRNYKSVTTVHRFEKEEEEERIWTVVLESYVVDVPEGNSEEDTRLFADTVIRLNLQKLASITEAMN
| Variant | relative binding score [%] |
| --- | --- |
| M68E | -3.3 |
| L91K | -6.11 |
| V78H | 52.5 |
| K168P | -0.713 |
| P37I | 0.793 |
| Y18Q | 2.51 |
| N114F | -9.36 |
| R132E | 46 |
| Q2V | 60.7 |
| E109N | 34.6 |

Study 3
Target: Centromere-binding protein 1, full length, N-terminal tag (CBF1, Saccharomyces cerevisiae, UniProt P17106, residues 1-351)
UniProt P17106, sequence (whole entry, looked up): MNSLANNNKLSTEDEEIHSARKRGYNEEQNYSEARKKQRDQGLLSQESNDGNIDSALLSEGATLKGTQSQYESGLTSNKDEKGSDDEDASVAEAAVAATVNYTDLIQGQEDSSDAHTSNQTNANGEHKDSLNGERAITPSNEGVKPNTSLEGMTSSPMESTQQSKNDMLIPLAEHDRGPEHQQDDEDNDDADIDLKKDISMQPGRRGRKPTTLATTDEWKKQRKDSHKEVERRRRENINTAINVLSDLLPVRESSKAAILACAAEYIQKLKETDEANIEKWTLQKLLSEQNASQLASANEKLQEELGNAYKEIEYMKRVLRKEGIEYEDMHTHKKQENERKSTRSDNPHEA
Method: protein-binding microarray
Form: double-stranded DNA, one strand shown
Medium: in vitro
Tested at: 0.8 µM
Setting: whole 60-bp probe, no competitor
Direction: higher = stronger binding
| Oligonucleotide | fluorescence intensity [a.u.] |
| --- | --- |
| GAATAAATACTTGAAAACGTGCATGTGATGATGTAGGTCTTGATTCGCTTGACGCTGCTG | 2650 |
| GAAACCAAAAAAGGGAACGTGACACGGCCTCGCTAGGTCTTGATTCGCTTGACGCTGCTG | 2330 |
| CTAATCACAAAATGTCACGTGCATGTTAGTCCATTCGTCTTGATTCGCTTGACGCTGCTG | 14200 |
| CTAAGTTCACGTGATATTATTAATAATATTTTATTCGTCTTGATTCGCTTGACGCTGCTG | 16300 |
| CTATGGGGTGAGTGTCACGTGCACAACGACGGTTTCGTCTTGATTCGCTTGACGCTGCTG | 20900 |
| GAACGCTATTAACGTGGTGTAGTCATGTGACCGTAGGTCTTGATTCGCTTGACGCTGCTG | 13400 |
| CTAAGGAGAAACAGTGGTCTGATGTGATAGGGATTCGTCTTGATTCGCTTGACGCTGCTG | 548 |
| GAACATAGGCGCTACCATGTGGACAATGTGGATTAGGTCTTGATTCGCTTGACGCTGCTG | 600 |
| CTATTTGCAACACGATGCGTGACGGTAATGCTTTTCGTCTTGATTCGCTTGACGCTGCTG | 683 |
| GAACGAGTTCGTGATTACATCAGGCATATACAATAGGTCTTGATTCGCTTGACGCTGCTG | 625 |
| TGTACGAAGCTATGTTATGTCACTATAGTAGTTAGGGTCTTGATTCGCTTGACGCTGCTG | 494 |
| CTAATTCACGCTGTCCTCGTGAAAAAACTTTTTTTCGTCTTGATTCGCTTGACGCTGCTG | 698 |
| CTACTTCATTTGCATCATCAGTAGCGTTCATCTTTCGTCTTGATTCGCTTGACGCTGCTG | 538 |
| GAAACGCATAATTCTAACGTGACAAATGTTGTTTAGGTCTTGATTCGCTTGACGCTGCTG | 803 |

Study 4
Substance: PhoQ, residues 284 288 289 292 302 303 AEGLLW
Method: Sort-seq
Item: YFP reporter
Medium: E. coli
Setting: PhoQ-PhoP variant library
Together with: 10 µM Mg2+
Baseline: high Mg2+ state
Direction: higher = stronger signaling
| target | fold induction |
| --- | --- |
| PhoP, residues 12 14 15 18 19 TQAML (Escherichia coli, UniProt P23836) | 9.92 |
| PhoP, residues 12 14 15 18 19 NQCAL (Escherichia coli, UniProt P23836) | 6.09 |
| PhoP, residues 12 14 15 18 19 LHTVL (Escherichia coli, UniProt P23836) | 12.3 |

Repeated from above (study 1):
| Variant | normalised enrichment score |
| --- | --- |
| R5S | 0.379 |
| L7A | -0.0523 |
| E12F | 3.88 |
